Published values pooled from the literature.
Parts stem from different laboratories: compare values within a part only. Values joined by “and” are separate records of one study, mostly repeats; a detail may differ. Substitutions count along the parent as printed.

Sample 1
Target: vanadate, free oxyanion
Method: microfluidic competitive inhibition
Matrix: in vitro, cell-free expressed
Tested at: not given
Notes: derived from inhibition constants, unchanged parent 676 nM
Reading: lower = stronger binding
Starting sequence: PafA, mature enzyme, eGFP fusion (Elizabethkingia meningoseptica, UniProt Q9KJX5); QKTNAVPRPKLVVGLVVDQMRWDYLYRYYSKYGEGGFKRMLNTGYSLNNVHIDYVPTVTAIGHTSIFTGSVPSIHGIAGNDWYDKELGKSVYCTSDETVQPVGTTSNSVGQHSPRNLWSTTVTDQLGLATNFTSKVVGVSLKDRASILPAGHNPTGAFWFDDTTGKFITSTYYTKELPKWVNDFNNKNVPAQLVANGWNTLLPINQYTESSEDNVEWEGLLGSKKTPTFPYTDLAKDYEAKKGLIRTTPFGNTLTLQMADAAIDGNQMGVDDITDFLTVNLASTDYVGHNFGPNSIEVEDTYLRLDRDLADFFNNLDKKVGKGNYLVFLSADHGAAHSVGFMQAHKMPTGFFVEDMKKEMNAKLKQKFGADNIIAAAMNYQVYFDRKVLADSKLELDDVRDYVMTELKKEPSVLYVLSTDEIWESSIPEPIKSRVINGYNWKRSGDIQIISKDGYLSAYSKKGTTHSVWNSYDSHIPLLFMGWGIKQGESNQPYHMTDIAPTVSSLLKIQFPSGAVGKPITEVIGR
Under “oxyanion analog dissociation constant”, `S392V` is recorded as 653 nM.
`K135G`: “oxyanion analog dissociation constant” 751 nM.
`S505V`: “oxyanion analog dissociation constant” 837 nM.
Under “oxyanion analog dissociation constant”, `V298G` is recorded as 838 nM.
Under “oxyanion analog dissociation constant”, `F341G` is recorded as 1.61 µM.
For `K322V`, “oxyanion analog dissociation constant” read 782 nM.
For `M258G`, “oxyanion analog dissociation constant” read 583 nM.
Under “oxyanion analog dissociation constant”, `K346G` is recorded as 526 nM.

Sample 2
Structure (SMILES): CCOc1ccc(Nc2c3c(nc4ccccc24)CCC3)cc1
Organism: Leishmania donovani
For parasite viability, resazurin; DD8, promastigotes; 0.0066 µM: inhibition read -3% and -4% and 2%.
For parasite growth; 6.66 µM, promastigote: inhibition read 37%.
The inhibition was 5% and 12% and 4% and 11% (parasite growth; DD8 amphotericin B-resistant, intracellular amastigotes; 0.2 µM).
It gave 4% and 2% and 6% and 1% for inhibition (parasite growth; DD8 amphotericin B-resistant, promastigotes; 0.033 µM).
For parasite growth; DD8 amphotericin B-resistant, promastigotes; 0.066 µM: inhibition read 4% and 2% and 1%.

Sample 3
Cell line: HEK-293T/ACE2
Tested at: concentration not given
Time: 16 (unit not given)
Reference: vehicle
The viability of `OC[C@@H](O)[C@@H](O)[C@H](O)[C@@H](O)CO` is reported as 101%.
`COC(=O)/C=C/C(=O)OC` has a viability of 103%.
With `CNC[C@H](O)c1cccc(O)c1` the viability was 98.6%.
For `O=C1c2c(O)ccc(O)c2C(=O)c2c(NCCNCCO)ccc(NCCNCCO)c21`, the viability was 70%.

Sample 4
Sequence: AAAVRKPIVLKR
Form: peptide
Reading: direction not given
Saccharomyces cerevisiae; binding, competitive growth deep sequencing; cyclin D3-Cln2 fusion strain; peptide tiling library — enrichment score: 0.044.
Saccharomyces cerevisiae; growth after mating arrest, competitive growth deep sequencing; strain without Cln2 fusion — enrichment score: -0.176.
It gave 1.23 for enrichment score (Saccharomyces cerevisiae; binding, yeast competitive growth sequencing; cyclin D1-Cln2 strain, peptide tiling library).
The enrichment score was -0.249 (peptide binding; yeast competitive growth; added: B2-Cln2 chimera).

Sample 5
Target: 5-hydroxytryptamine receptor 2C (HTR2C, Homo sapiens, UniProt P28335)
Sequence of UniProt P28335 (whole entry, looked up): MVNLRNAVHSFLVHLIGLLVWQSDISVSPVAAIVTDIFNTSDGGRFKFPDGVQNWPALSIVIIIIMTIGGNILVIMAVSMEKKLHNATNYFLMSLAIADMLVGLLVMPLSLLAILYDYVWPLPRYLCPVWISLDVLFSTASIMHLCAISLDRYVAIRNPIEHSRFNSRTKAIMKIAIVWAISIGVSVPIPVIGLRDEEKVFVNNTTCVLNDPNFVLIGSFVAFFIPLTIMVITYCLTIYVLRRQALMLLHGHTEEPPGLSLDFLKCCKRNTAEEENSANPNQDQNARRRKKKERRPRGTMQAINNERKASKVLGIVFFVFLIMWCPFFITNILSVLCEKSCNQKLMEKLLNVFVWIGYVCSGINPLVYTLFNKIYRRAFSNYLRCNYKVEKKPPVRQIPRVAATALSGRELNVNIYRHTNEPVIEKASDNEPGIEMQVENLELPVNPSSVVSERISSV
Effect on: ligand displacement
Tested at: 10 µM
`C[C@H](c1ccnc(Nc2nc3ccc(-c4cc(N(C)C)ncn4)cc3[nH]2)c1)N1CCN(C(=O)CC(F)(F)F)CC1` has an inhibition of 11.4%.
`Cn1cncc1[C@@](O)(COc1ccc(C#N)cc1-c1ccc(OC(F)(F)F)cc1)c1ccc(C#N)cc1` has an inhibition of 17.1%.
With `CN1C(=O)[C@@H](N2CCc3c(nn(Cc4ccccc4)c3Br)C2=O)COc2ccccc21` the inhibition was 2.4%.
`CCOc1cc(N2C3COCC2CN(C(=O)[C@H]2C[C@H](O)CN2c2ccc(Cl)cc2)C3)ccc1Cl` gave an inhibition of 4.08%.
With `Cn1nc(C(F)(F)F)cc1-c1cnc(N2CCc3cc(S(=O)(=O)Nc4c(F)cc(Cl)cc4F)cc(N4CCCC4=O)c32)nc1` the inhibition was 31%.
`NC(=O)c1ccc2nc(-c3ccc(C4(N)CCC4)cc3)c(-c3ccccc3)n2n1` gave an inhibition of 25.7%.
With `C[C@@H](c1cccc(C#N)c1)n1cc(Cl)cc(C(N)=O)c1=N` the inhibition was 16.8%.
`CC(=O)N1CCC(c2ccc(C(=O)NC3=NCCN3)cc2C(F)(F)F)CC1` has an inhibition of -2.86%.
With `Cc1cc(Nc2nccc(C)n2)cc(-c2cnc([C@@]3(O)CC[C@H](C(=O)O)C(C)(C)C3)s2)c1` the inhibition was 3.02%.
`CCC(=NO)C(C)=Cc1ccc(F)c(C)c1` has an inhibition of 27%.
`CS(=O)(=O)N1CCCC(NC(=O)[C@H](CCC2CCCCC2)NC(=O)c2ccc(CNC(=O)c3cnc4ccccn34)cc2)C1` (stereo partly drawn) gave an inhibition of 8.24%.
`C[C@@H]1CN(c2cc(-c3n[nH]c4ccc(OC5(C)CC5)cc34)ncn2)C[C@H](C)O1` has an inhibition of 7.65%.
`c1ccc(C2CCN(c3cnc4c(N5CCOCC5)nccn34)CC2)cc1` gave an inhibition of 5.92%.
`COc1cc(N[C@@H]2CCCC[C@]2(O)C(F)(F)F)ccc1F` has an inhibition of -0.76%.
`CN(C)C(=O)c1sc2nc(N3CCC(S(C)(=O)=O)CC3)cc(C(F)(F)F)c2c1N` gave an inhibition of 11.6%.
`C[C@H](c1ccc(F)cc1)N(Cc1cccc(C(=O)O)c1)C(=O)c1cnc2ccccc2c1` gave an inhibition of 6.54%.

Further values, each from its own experiment
The viability of `C#C[C@]1(O)CC[C@H]2[C@@H]3CCC4=CC(=O)CC[C@]4(C)[C@H]3CC[C@@]21C` is reported as 93.2% (HaCaT; 100 µM, 60 h).
For `Cc1n[nH]c2c1C(c1c(Cl)nc3sccn13)SCC(O)=N2` (stereo not drawn), the remaining compound was 70.6% (human, microsomes or S9; 2 µM, 0.5 h).

For quick reference, copied from above (sample 1):
For `K322V`, “oxyanion analog dissociation constant” read 782 nM.
For `M258G`, “oxyanion analog dissociation constant” read 583 nM.
Under “oxyanion analog dissociation constant”, `V298G` is recorded as 838 nM.
Under “oxyanion analog dissociation constant”, `S392V` is recorded as 653 nM.
Under “oxyanion analog dissociation constant”, `K346G` is recorded as 526 nM.
Under “oxyanion analog dissociation constant”, `F341G` is recorded as 1.61 µM.
